Assay results from different studies.
Every numbered part comes from another study and shows a few of its results, in no order.

Sample 1
Target: RING finger protein unkempt homolog, zinc fingers 1-6, GST-SBP tag (UNK, Homo sapiens, UniProt Q9C0B0, residues 30-357)
Method: RNA Bind-n-Seq
Molecule type: RNA
Medium: in vitro
Concentration: not given
Setting: RNA with constant flanks, human-mouse chimeric sites, ends assumed
Baseline: input RNA pool
Direction: higher = stronger binding
Shared flanks, not repeated: GGGAGUUCUACAGUCCGACGAUC … CAACAGAGGAUUGAGCAUCA
Residues (chain): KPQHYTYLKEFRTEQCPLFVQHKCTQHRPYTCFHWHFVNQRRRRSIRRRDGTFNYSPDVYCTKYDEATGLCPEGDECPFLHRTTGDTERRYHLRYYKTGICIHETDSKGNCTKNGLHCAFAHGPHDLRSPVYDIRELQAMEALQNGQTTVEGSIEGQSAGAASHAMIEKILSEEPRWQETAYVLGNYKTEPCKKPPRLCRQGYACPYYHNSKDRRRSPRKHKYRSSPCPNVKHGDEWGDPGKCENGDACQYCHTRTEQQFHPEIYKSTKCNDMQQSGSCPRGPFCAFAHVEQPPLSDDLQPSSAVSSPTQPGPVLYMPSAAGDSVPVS
Oligonucleotide	bound/input enrichment
GAUCAUGAACCACCAUCAGAAAUGAAGGAUGAGACUACCAGACGAGCCAAAACAGCUGCGCUACAGAAAAGUAAACUUAACCUUGCAGAGUUCCUUAAUGAAGAUACAAGUUAAGAGAGC	0.223 ratio
GUGUCCUGCUUUCAACUAUCACUGAGGAGGCAUCUCUACUGUUCUGUGAGCAUCAGGAUUUUAGUGCUGUGUCACCACAUGAGAGUUCAGAAGCAGCCUUUCUGUGGAGGGUGGGAAUGA	0.0838 ratio
UCCCAAAUCCAGCAGCUAGAAGGAGCCAAUUGUUUGUCACUCCACACGCAGGGAGGGCGAUAACAUUGUACAUUGGUUUACAUUUUUUCCCCCUGUGGAUUUUUCUAGAGGUCAUAGUGC	0.627 ratio
GAGUCGAGCAAACUUGAAACAAUUCGUUAUCUUGCAGAGCUUCGGUGCACUUGCUUGGCGAUAGCAUAUUGGGAUUUUAGGUUCUGGAAGGAGAACUGACGAUGAUGCUGCCGCUGCUGC	0.953 ratio
GAUCCACAGUGGUCUGAGGAGCAACUCAUUGCUGCAAAAUUCUGUUUUGCUGGCCUUCUUAUAGGCCAGACUGAAGUGGACAUCAUGAGUCAUGCUACACAAGCUAUUUUUGAAAUUCUG	0.0952 ratio
GGCCUGGGACCGUCCUGGGCUAGUACAAUAGCGGCAGGUGGAGGCUCGAGAGGAAAGUUUGUUAGUGGAGGCAGUGGUAGAGGCCGUAUGUACGCUCCCUUUACUCGAUAGAUGUGUUCU	0.341 ratio
AAUUUCCUGUCAUACUUUUUAGACAUUCACAUCAGACUUACAGAGCACCUGGCCACAUUCUAGGUUUGUGUUAUUUCUCAGCUAUGGGGGUAUGAUUAUGAGAACACUGCUUAACUAAUG	0.825 ratio
CGCGUCCUCUCGCUGCUGCGGAGCCCGAGCUGGGAACCAUUCCGGGACGACUGGUACGCACACAGCCGCCUCUUCGAUCAAGCUUUCGGGGUGCCCCGGUUGCCCGAUGAGUGGUCGCAG	0.106 ratio

Sample 2
Target: Ras GTPase-activating protein-binding protein 1, full length (G3BP1, Homo sapiens, UniProt Q13283)
Sequence of UniProt Q13283 (whole entry, looked up): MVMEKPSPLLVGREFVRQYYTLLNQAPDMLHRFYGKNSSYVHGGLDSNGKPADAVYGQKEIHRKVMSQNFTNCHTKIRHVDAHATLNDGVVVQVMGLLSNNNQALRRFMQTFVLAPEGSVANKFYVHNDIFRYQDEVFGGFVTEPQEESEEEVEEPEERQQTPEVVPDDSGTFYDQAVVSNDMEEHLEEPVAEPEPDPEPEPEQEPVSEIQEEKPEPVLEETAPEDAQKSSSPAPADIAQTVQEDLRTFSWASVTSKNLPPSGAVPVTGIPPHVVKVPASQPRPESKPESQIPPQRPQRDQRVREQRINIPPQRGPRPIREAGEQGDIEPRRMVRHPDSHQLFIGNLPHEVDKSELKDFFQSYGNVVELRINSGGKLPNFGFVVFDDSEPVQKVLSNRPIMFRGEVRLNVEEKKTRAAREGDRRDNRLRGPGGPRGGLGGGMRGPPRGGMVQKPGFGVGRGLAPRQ
Method: RNA Bind-n-Seq
Molecule type: RNA
Medium: in vitro
Concentration: 200 nM
Setting: whole 134-nt RNA, ends assumed
Together with: 150 mM KCl
Baseline: input library
Direction: higher = stronger binding
Shared flanks, not repeated: GGGAGUUCUACAGUCCGACGAUC … UGGAAUUCUCGGGUGUCAAGG
Oligonucleotide	log2 enrichment
ACUAUGCAGGUGGGCAUCUUUGGGAAGUGGGGCAAGGGGGGGAUAGGGAGGGGGGUAACACUUUGGGAACAGGUGGUCCCAGGUCGUUUC	1.28
UCCUGUGCUACACAUCGUAUGUACCGAAUCGGGGAAAAAAGGAAAAAAGGAAAAAAGGGAAAGUAUUAUGUUACGCCGUUCGGAUCUGCA	-0.309
CAAGUCCUGUGCUACACAUCGUAUGUACCGAAUCGGUUUUUUUGGAGGUUUUUGGAAAGUAUUAUGUUACGCCGUUCGGAUCUGCACUUC	-0.694
AAGUCCUGUGCUACACAUCGUAUGUACCGAAUCGGGCCCGGGGCCCGGGCCCGGGGAAAGUAUUAUGUUACGCCGUUCGGAUCUGCACUU	-1.29
UCCUGUGCUACACAUCGUAUGUACCGAAUCGGGAAAAAGGGUUUUUUUGGGUUUUUGGGAAAGUAUUAUGUUACGCCGUUCGGAUCUGCA	-0.62
UAACUUUAGAGGAGGAUCUGAUGGAUAUGGCAGUGGACGUGGAUUUGUGGAUGGCUAUAAUGGGUAUGGAGGAGGACCUGGAGGUGGCAA	0.414
AAGUCCUGUGCUACACAUCGUAUGUACCGAAUCGGUUUUGGGGUUUUGGGUUUUGGAAAGUAUUAUGUUACGCCGUUCGGAUCUGCACUU	-0.943
GUCCUGUGCUACACAUCGUAUGUACCGAAUCGGGUUUUUUUGGGUUUUUUUGGGUGGGAAAGUAUUAUGUUACGCCGUUCGGAUCUGCAC	-0.232
GUCCUGUGCUACACAUCGUAUGUACCGAAUCGGGGUUUUUGGGGUGGGGUUUUUGGGGAAAGUAUUAUGUUACGCCGUUCGGAUCUGCAC	0.254

Sample 3
Target: Histone acetyltransferase KAT6A, winged helix 2, GST fusion (KAT6A, Homo sapiens, UniProt Q92794, residues 85-181)
Method: protein binding microarray
Molecule type: double-stranded DNA, one strand shown
Medium: in vitro
Concentration: not given
Setting: 8-mer, flanks averaged, mean of 2 arrays, mostly near background
Baseline: not given
Direction: higher = stronger binding
Residues (chain): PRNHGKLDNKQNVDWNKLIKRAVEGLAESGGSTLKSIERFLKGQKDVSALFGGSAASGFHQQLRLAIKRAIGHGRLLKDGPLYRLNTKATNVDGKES
Oligonucleotide	E-score
ATACCCTC	0.0773
AATGCCGA	0.0836
AGTAGCAC	-0.0372
AGATGGGG	-0.0917
AACGGACC	0.113
AACCAGTT	0.145
ACATGGGG	-0.0529
GCTAGTGA	0.00881
AACGTGCA	-0.228
GGACCCAC	0.184
CCAAAAGA	0.168
AAACGGTT	-0.242
AGCCGTTG	0.0199
GGAAATAA	0.153
GCACGGGC	0.0777
GAGCCTCA	-0.126
AACGCAGG	0.0938
TGGGGAAA	-0.0055
ACTAACCG	-0.0829
GCGGATTA	0.0306
TCTCTACA	0.0157

Sample 4
Target: RNA binding protein fox-1 homolog 2, RRM domain, GST-SBP tag (RBFOX2, Homo sapiens, UniProt O43251-10, residues 100-194)
Method: RNA Bind-n-Seq
Molecule type: RNA
Medium: in vitro
Concentration: 365 nM
Setting: natural RNA segment, single round, ends assumed
Baseline: no-protein control
Direction: higher = stronger binding
Shared flanks, not repeated: GGGAGUUCUACAGUCCGACGAUC … UGGAAUUCUCGGGUGCCAA
Target sequence (chain): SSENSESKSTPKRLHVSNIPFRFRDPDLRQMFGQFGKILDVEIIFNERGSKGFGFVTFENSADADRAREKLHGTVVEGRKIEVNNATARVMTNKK
Oligonucleotide	RBNS enrichment (R)
AAGUGUUUUGUUUGUUUGAAACAGUUUUACACUUUCUAAUGUACAGUACUUGAAGUUCGUACUAGAGAAUUCCUUUGUAGUUUUGAAGCUUUUAUCCAAACUACUUUGAA	0.439
UUGUCAUUCUUUGUUGCCCCUUUUCUGUCACCAGCCAACCACAUAGCCUUGGGACCAGCCUCUCUGGGGGACCAGAAGUAGUGAGAGAAGGAAGGGGAUAGGCAGCUUUG	0.323
CCCUUCAGCGCUAGACCAUCAAGUUGGCAUAAAGAAAAAAAAAUGGGUUUGGGCCCUCAGAACCCUGCCCUGCAUCUUUGUACAGCAUCUGUGCCAUGGAUUUUGUUUUC	0.549
CCCGUGAAUUAUAUGGCCUGACAAUAUGAAUUAGGUGUACUGUACUGAAGAACAGUACUCCACAAACAUGGGUGGUAACAAGAGUUCCAUCCCAGGAGGCCAAACGGUGC	0.417
ACUGGGUGUUGGGCAUGGGGGCCCAUGGAGUCAAAAGGAAUGGAGAGAAGGGCUUUGUAAAUAGCAUUUAAUGUUAAGAACAUCUGCAUUCUCUUUGUAGCUGAGUGCGU	1.62
UAAACUGCAUGCUGCCAAGUGCCAUUUGGGGUCAGCAUCCUCGUUUCAACACAGUGUGCUCUCUAGUUAUCAUGUGUAACGUGGGUUCUGUUUAGCGAAGAUAGACUAGA	0.881
GCUGAGCUGGGAAAGAAGAGAGCAGGUUUUGCCUGGCUGUGGUUCCCUGCCCAAGGUGCUGACCCAAUCGCUGCCAAAAGAGAGUCAAUCAGAAUAUCCAAGUCCUGUAU	0.578
AAAUAAACAAAGGAUUAUGCUUAAUAGUUUUCAUUGAAGUUUAUUAUAACUUAUUUCAGAUGUGUCCUUUUAUUGUACAUUUUGUAUAAUAAAUGUUGAAGUUGAAAACU	0.568

Repeated from above (sample 2):
Oligonucleotide	log2 enrichment
AAGUCCUGUGCUACACAUCGUAUGUACCGAAUCGGGCCCGGGGCCCGGGCCCGGGGAAAGUAUUAUGUUACGCCGUUCGGAUCUGCACUU	-1.29
UCCUGUGCUACACAUCGUAUGUACCGAAUCGGGAAAAAGGGUUUUUUUGGGUUUUUGGGAAAGUAUUAUGUUACGCCGUUCGGAUCUGCA	-0.62
UAACUUUAGAGGAGGAUCUGAUGGAUAUGGCAGUGGACGUGGAUUUGUGGAUGGCUAUAAUGGGUAUGGAGGAGGACCUGGAGGUGGCAA	0.414
